Results collected from several papers.
Each line is one published result; not all experiments were run side by side. In brackets after ≈: the same amount, converted by molar mass.
Organism: Staphylococcus aureus

Substance	assay	test system	conditions	scale	quantity	value
CC[C@H](C)[C@H](NC(=O)[C@H](CCCCN)NC(=O)[C@H](CCC(=O)O)NC(=O)[C@H](CCCCN)NC(=O)[C@H](CO)NC(=O)[C@H](CCCCN)NC(=O)[C@H](CCCNC(=N)N)NC(=O)[C@H](Cc1ccccc1)NC(=O)[C@H](Cc1ccccc1)NC(=O)[C@H](CC(=O)O)NC(=O)CNC(=O)[C@H](CC(C)C)NC(=O)[C@@H](N)CC(C)C)C(=O)NCC(=O)N[C@@H](CCCCN)C(=O)N[C@@H](CCC(=O)O)C(=O)N[C@@H](Cc1ccccc1)C(=O)N[C@@H](CCCCN)C(=O)N[C@@H](CCCNC(=N)N)C(=O)N[C@H](C(=O)N[C@H](C(=O)N[C@@H](CCC(N)=O)C(=O)N[C@@H](CCCNC(=N)N)C(=O)N[C@H](C(=O)N[C@@H](CCCCN)C(=O)N[C@@H](CC(=O)O)C(=O)N[C@@H](Cc1ccccc1)C(=O)N[C@@H](CC(C)C)C(=O)N[C@@H](CCCNC(=N)N)C(=O)N[C@@H](CC(N)=O)C(=O)N[C@@H](CC(C)C)C(=O)N[C@H](C(=O)N1CCC[C@H]1C(=O)N[C@@H](CCCNC(=N)N)C(=O)N[C@H](C(=O)N[C@@H](CCC(=O)O)C(=O)N[C@@H](CO)C(=O)O)[C@@H](C)O)C(C)C)[C@@H](C)CC)C(C)C)[C@@H](C)CC		JE2 SAUSA300_1465 transposon mutant	12.5% TSB	relative to: wild type over mutant	MIC ratio	10 fold
CCCCCOc1c(OC)cc(NC(C)CCCNC(=O)C(N)Cc2ccccc2)c2nc(C(C)(C)C)ccc12 (stereo not drawn)	microbial killing	ATCC33591 MRSA	drug-resistant strain		MBC	20 µg/mL
C[C@H]1c2cccc(O)c2C(=O)C2=C(O)[C@]3(O)C(=O)C(C(N)=O)=C(O)[C@@H](N(C)C)[C@@H]3[C@@H](O)[C@@H]21	checkerboard broth microdilution	ATCC 38591 oxacillin-resistant	together with: magainin II		FIC index	1
CC(=O)NC(C)(C)C(=O)N1CCC[C@H]1C(=O)NC(C)(C)C(=O)N[C@@H](C)C(=O)NC(C)(C)C(=O)N[C@@H](C)C(=O)N[C@@H](CCC(N)=O)C(=O)NC(C)(C)C(=O)N[C@H](C(=O)NC(C)(C)C(=O)NCC(=O)N[C@@H](CC(C)C)C(=O)NC(C)(C)C(=O)N1CCC[C@H]1C(=O)N[C@H](C(=O)NC(C)(C)C(=O)NC(C)(C)C(=O)N[C@@H](CCC(=O)O)C(=O)N[C@@H](CCC(N)=O)C(=O)N[C@H](CO)Cc1ccccc1)C(C)C)C(C)C		ATCC 8530			MBC	16 µM
CC[C@H](C)[C@H](NC(=O)[C@H](C)NC(=O)[C@@H](NC(=O)[C@H](C)NC(=O)CNC(=O)[C@H](CCSC)NC(=O)[C@H](CCC(N)=O)NC(=O)[C@H](CC(C)C)NC(=O)[C@H](CO)NC(=O)[C@@H](N)Cc1ccc(O)cc1)[C@@H](C)O)C(=O)N[C@@H](CCCCN)C(=O)N[C@@H](CCC(N)=O)C(=O)N[C@H](C(=O)N[C@@H](CCCCN)C(=O)N[C@@H](CCCCN)C(=O)N[C@@H](CC(C)C)C(=O)N[C@@H](Cc1ccccc1)C(=O)N[C@@H](CCCCN)C(=O)N[C@@H](CCCCN)C(=O)N[C@@H](CCCCN)C(=O)NCC(=O)NCC(N)=O)C(C)C	broth microdilution	ATCC 25923	24 h, 37 °C		MIC50	19 µM (≈ 46.1 µg/mL)
CCCCCCCOc1c(OC)cc(NC(C)CCCNC(=O)C(N)CCCCN)c2nc(C(C)(C)C)ccc12 (stereo not drawn)	bacterial growth	MRSA ATCC 33591			IC50	> 20 µg/mL
CC[C@H](C)[C@H](NC(=O)[C@@H](NC(=O)CN)C(C)C)C(=O)N[C@@H](Cc1ccccc1)C(=O)N[C@@H](CC(N)=O)C(=O)N[C@@H](C)C(=O)N[C@@H](CC(C)C)C(=O)N[C@@H](CCCCN)C(=O)NCC(=O)N[C@H](C(=O)N[C@@H](C)C(=O)N[C@@H](CCCCN)C(=O)N[C@H](C(=O)N[C@H](C(=O)N[C@@H](C)C(=O)N[C@@H](C)C(=O)N[C@@H](CCC(N)=O)C(=O)N[C@@H](CC(C)C)C(=O)N[C@@H](CC(C)C)C(=O)N[C@@H](CCCCN)C(N)=O)C(C)C)[C@@H](C)O)C(C)C	persister cells in biofilm	MRSA NCTC 12493	together with: vancomycin 4 µg/mL		MBEC	> 512 µM
CCCCOc1c(OC)cc(NC(C)CCCN)c2nc(C(C)(C)C)ccc12 (stereo not drawn)		MRSA ATCC 33591			MBC	> 20 µg/mL
eremomycin		10, female SHK mice, sepsis	intravenous, 30 min after infection, 10 days observation		dose for 100% survival	4.5 mg/kg

Excerpt of the above:
Substance	assay	test system	conditions	scale	quantity	value
C[C@H]1c2cccc(O)c2C(=O)C2=C(O)[C@]3(O)C(=O)C(C(N)=O)=C(O)[C@@H](N(C)C)[C@@H]3[C@@H](O)[C@@H]21	checkerboard broth microdilution	ATCC 38591 oxacillin-resistant	together with: magainin II		FIC index	1
